Assay results of several laboratories.
Compare with care: the assays were run in different laboratories. Several values in a cell are separate wells, animals, samples, runs or records. ± marks the error that the study gave.

| SMILES | cell line | assay | system | setting | scale | endpoint | value |
| --- | --- | --- | --- | --- | --- | --- | --- |
| Cn1cc(Nc2nccc(-c3ccc4c(c3)CN(C3COC3)CC[C@H]4NC(=O)c3cn(C(C)(C)C)nn3)n2)cn1 | mouse splenic B cells | item: NF-κB signalling |  | 30 mg/kg, IgD-activated in vivo | reference: vehicle, direction not given | pathway activation z-score | 4.49 |
| C=C[C@@]1(C)CC(=O)[C@]2(O)[C@@]3(C)[C@@H](O)CCC(C)(C)[C@@H]3[C@H](O)[C@H](OC(C)=O)[C@@]2(C)O1 | PBMC | MSD |  | 0.01 µM, unit not given, with: PGE2 | reference: DMSO | cAMP level difference | -3.03 |
| COc1cc2ncnc(Nc3ccc(Oc4ccccc4)c(C)c3C)c2cc1OC | LoVo (KRAS G13D) | resazurin |  | 0.1 µM, 72 h, with: trametinib 0 nM |  | viability | 90.4% |
| Nc1cccc2c1C(=O)N(C1CCC(=O)NC1=O)C2=O (stereo not drawn) | RPMI-8226 | flow cytometry, item: CD6 |  | concentration not given | reference: comparator compound alone | surface marker level | 161% |
| CC(C)C[C@@H](C=O)NC(=O)[C@H](CC(C)C)NC(=O)[C@H](CC(C)C)NC(=O)OCc1ccccc1 | HEK293 with FLuc reporter | FLAG-ubiquitin immunoprecipitation |  | concentration not given, 6 h, unit not given | reference: mock | polyubiquitinated FLuc level | 1.63 |
| CCn1cc(-c2cc(Cn3ccoc3=N)cc3c2CCN([C@@H](C)c2cc(OC)ccn2)C3=O)c(C(F)(F)F)n1 | NCI-H2228 | cell growth, inhibitor |  | 120 h |  | EC50 | 8.91 µM |
| [Cl-].[Cl-].[Os+2].c1cnc2c(c1)ccc1cccnc12.c1cnc2c(c1)ccc1cccnc12.c1cnc2c(c1)ccc1cccnc12 | SK-MEL-28 | sulforhodamine B |  | normoxia, with: white visible light |  | GI50 | 4.98 µM |
| COc1cc(/C=C/C(=O)N2CCC=CC2=O)cc(OC)c1OC | MDA-MB-468 | quantitative RT-PCR, item: GPX4 |  | 30 µM, 8 h | reference: untreated cells | mRNA level | 98.7 ± 12.1% |
| CCN(CC)S(=O)(=O)Nc1cccc(-c2ccc3c(NC(=O)C4CC4)n[nH]c3c2)c1 | HEK293T | flow cytometry, item: surface LRP6 |  | concentration not given, 8 h, with: WNT3A |  | LRP6-positive cells | 55.8% and 56.4% |
| CN1C(=O)C(Cc2c[nH]c3ccccc23)NC1=S (stereo not drawn) | L929 | ATP viability |  | concentration not given, with: poly(I:C) and zVAD |  | necroptosis | no effect |
| COc1ccc(-c2coc3cc(O)cc(O)c3c2=O)cc1 | Caco-2 monolayers |  |  | 100 µg/mL, 15 min | reference: 0 min value | TEER | ≤ 120% |
| CC#CC(=O)N1CCC[C@H]1c1nc(-c2ccc(C(=O)Nc3ccccn3)cc2)c2c(N)nccn12 | TMD8 wild-type | calcium flux, FLIPR |  | 1 h preincubation, with: anti-IgM |  | maximum inhibition | 76.1% |
| CCc1n(Cc2ccc3ccccc3n2)cc[n+]1Cc1ccc2ccccc2c1.[Br-] | NSCLC cell lines |  |  | upper end of range |  | TGI | ≤ 27.6 µM |
| Nc1ncnc2c1ncn2[C@@H]1O[C@H](CO)[C@@H](O)[C@H]1O | activated human T cells | item: inosine |  | 50 µM | reference: DMSO | log2 fold change | 2.2 and 2.7 and 1.7 |
| CC(C)NCC(O)c1ccc(O)c(O)c1 (stereo not drawn) | mouse ventricular cardiomyocytes |  |  | dose not given, 0.159 s |  | sarcomere length | 1.59 µm |
| CC/C(=N\NC(=O)C(C)Nc1ccccc1)c1ccc(O)c(C)c1O (stereo not drawn) | SK-OV-3 | Western blot, item: LATS |  | 10 µM, 1 h, 2D culture, unit not given | reference: β-actin | protein level | 1.16 ± 0.73 |
| CCOc1cc([C@@H](CS(C)(=O)=O)N2C(=O)c3cccc(NC(C)=O)c3C2=O)ccc1OC | PBMC | MSD |  | 0.01 µM, unit not given, with: PGE2 | reference: DMSO | cAMP level difference | -2.55 |
| CCOc1ccc(-c2nc3cc(-c4nc5cc(N6CCN(C)CC6)ccc5[nH]4)ccc3[nH]2)cc1OCC | SF-539 | SRB |  | 10 µM, 48 h |  | growth percent | -42.7% |
| CCn1cc(-c2cc(Cn3ccnc3)cc3c2CCN([C@H](c2cc(OC)ccn2)C2CC2)C3=O)c(C(F)(F)F)n1 | SW1271 | cell growth, inhibitor |  | 120 h |  | EC50 | > 30 µM |
| CCCN(c1ccc(OC)cc1)S(=O)(=O)C1CC2OC1C(c1ccc(O)cc1)=C2c1ccc(O)cc1 (stereo not drawn) | MCF7 3xERE-luc, steroid-deprived | ERE luciferase reporter, agonist |  |  | reference: vehicle | Emax | -6.6% |
| C=CC1=C(C)c2cc3[n-]c(cc4nc(cc5[n-]c(cc1n2)c(C)c5C=C)C(C)=C4CCC(=O)O)c(CCC(=O)O)c3C.[Zn+2] | SH-SY5Y | RNA-seq, item: CD274 mRNA |  | 5 µM, 5 h | reference: untreated cells | fold change | 2.16 |
| COc1ncccc1CN[C@H]1[C@@H](C)[C@@H]1c1ccccc1 (relative stereo) | THP-1 wild type cells | MTS |  | 72 h |  | GI50 | > 50 µM |
| Cn1nc(C(C)(C)C)cc1NC(=O)Cc1ccc(Nc2ncnc3sccc23)cc1 | LC-2/ad | resazurin |  | concentration not given |  | growth inhibition | decreased |
| Cc1ccc(CNC(=O)Cn2cc(CSc3nc4ccccc4[nH]3)nn2)cc1 | HEK293 | MTT |  | 7.81 ppm |  | cytotoxicity | 51.1% |

| SMILES | cell line | assay | system | setting | scale | endpoint | value |
| --- | --- | --- | --- | --- | --- | --- | --- |
| Cc1cc(Nc2ncc(Cl)c(Nc3ccccc3S(=O)(=O)C(C)C)n2)c(OC(C)C)cc1C1CCNCC1 | CLB-GE | phosphoproteomics LC-MS/MS, item: HSF1 phosphorylation |  | 200 nM, 60 min | reference: untreated | log2 fold change | -4.31 |
| C=CCn1c(=O)c2cnc(Nc3ccc(N4CCN(C)CC4)cc3)nc2n1-c1ccc2c(n1)[C@@](O)(CC)CC2 | MDA-MB-231 | flow cytometry |  | concentration not given |  | S phase mitotic cells | 1.65% |
| CCCCc1nc(Cl)c(CO)n1Cc1ccc(-c2ccccc2-c2nn[nH]n2)cc1 | human PBMC | RNA-seq, item: NIPAL1 mRNA |  | 10 µg/mL, 24 h | reference: untreated control | log2 fold change | -2.27 |
| COc1ccc(-n2nc(C(C)=O)s/c2=N\N=C(/C)c2ccc(NC(=O)c3ccccc3)cc2)cc1 | MCF7 |  |  | 0.625 µM |  | viability | 2.72% |
| O=C(NC1CCCc2c1cnn2-c1ccc(O)cc1)c1ccccn1 (stereo not drawn) | Drosophila S3 | RNA-Seq |  | 1 µM, 4 h, with: oleic acid 200 µM | reference: DMSO with oleic acid | number of differentially expressed genes | 592 |
| O=c1cc(-c2ccc(O)cc2)oc2c([C@@H]3OC[C@H](O)[C@H](O)[C@H]3O)c(O)c([C@@H]3O[C@H](CO)[C@@H](O)[C@H](O)[C@H]3O)c(O)c12 | AC16 | item: IL-1β, MCP-1, IL-6 | culture supernatant | concentration not given, with: angiotensin II |  | cytokine level | decreased |
| S=C(Nc1ccccc1)Nc1nccs1 | differentiated LUHMES MT1G-HiBiT neurons | item: MT1G |  | 24 h |  | AC50 | 0.061 µM |
| Cn1cc(-c2ccc(-c3cncc(Cl)c3N3CCC4(CCNC4=O)CC3)cc2)cn1 | COLO 205 | gene expression, microarray, item: CDH11 mRNA |  | concentration not given, 6 h | reference: untreated cells | log2 fold change | 2.28 |
| COc1ccc(CC(=O)N(Cc2ccncc2)Cc2cccc(OCCc3ccc(F)cc3)c2)cc1 | L-363 | immunoblot |  | 15 µM, 18 h |  | MCL-1 protein level | decreased |
| COCCOCCOCc1n(Cc2ccc3ccccc3c2)c2ccccc2[n+]1Cc1ccc2ccccc2c1 | NSCLC cell lines | NCI60 one-dose screen |  | 10 µM |  | mean growth percentage | 13.6% |
| O=c1[nH]nc(OCCCc2ccc(Cl)cc2)c(NCc2cccnc2)c1Br | HEK293T | RNA-seq, item: CARS mRNA |  | 10 µM, 6 h | reference: vehicle | log2 fold change | 0.763 |
| CC1CC(c2ccccc2)n2nc(N)nc2N1 (stereo not drawn) | MEF with TRE-FLAG-LMNB1 | LMNB1 level, high-content screening |  | 250 µM |  | maximum inhibition | 23% |
| Cc1c(C)c2c(c(C)c1O)CCC(C)(COc1ccc(CC3SC(=O)NC3=O)cc1)O2 (stereo not drawn) | hepatocytes, iPSC-derived, line L1 | cell viability, RealTime-Glo MT |  | 72 h, differentiation day 23 |  | IC50 | 8 µM |
| COc1cnc2cccc(N3CCc4c(cc(Cn5ccnc5C)cc4-c4cn(C)nc4C(F)(F)F)C3=O)c2c1 | SNU-398 | cell growth, inhibitor |  | 120 h |  | EC50 | 1.33 µM |
| C=CC(=O)Nc1cc(Nc2ncc(C(=O)OC(C)C)c(-c3cn(C)c4ccccc34)n2)c(OC)cc1N(C)CCN(C)C | NCI-H2073 EGFR ASV knock-in | cell proliferation, CellTiter-Glo |  |  | reference: knock-in over parental NCI-H2073 | selectivity ratio | 1.4 |
| N#Cc1ccc(Oc2ccc3c(c2)COB3O)cc1 | PBMC | MSD |  | 0.0001 µM, unit not given, with: PGE2 | reference: DMSO | cAMP level difference | -0.783 |
| O=C(/C=C/C=C/C=C/C1CCCCC1)NC1=C[C@@](O)(/C=C/C=C/C=C/C(=O)NC2=C(O)CCC2=O)[C@@H]2O[C@@H]2C1=O | COLO-829 | cell growth, CellTiter-Glo |  | 78 h |  | GI50 | 15.9 µM |
| CC(=O)Nc1cc(Oc2ccc3c(nc(Nc4ccc(F)cc4F)n3C)c2C)ccn1 | MUTZ5 B-ALL cells | CellTiter-Glo |  | concentration not given, 3 d |  | cell proliferation | inhibited |
| C=CC(=O)N1CCC[C@@H](c2ccc(C(N)=O)c3[nH]ccc23)C1 | TMD8 wild-type | calcium flux, FLIPR |  | 2 h preincubation, with: anti-IgM |  | maximum inhibition | 42.3% |
| CCCCN1C[C@H](O)[C@@H](O)[C@@H](O)[C@H]1CO | sample C patient fibroblasts | Gb3 level lowering, LC-MS/MS, item: Gb3 d18:1/18:0 |  | 216 h |  | IC50 | 5.6 µM |
| Cc1cc2c(cc1C)[n+](Cc1ccc3ccccc3c1)cn2Cc1ccc2ccccc2c1 | NSCLC cell lines | NCI60 one-dose screen |  | 10 µM |  | mean growth percentage | -59% |
| c1ccc(-c2n(Cc3ccc4ccccc4c3)cc[n+]2Cc2ccc3ccccc3c2)cc1 | NSCLC cell lines |  |  | 10 µM, average over cell lines | reference: untreated | growth | -27% |
| S=c1n(Cc2ccc3ccccc3c2)c2ccccc2n1Cc1ccc2ccccc2c1 | NSCLC cell lines | NCI60 one-dose screen |  | 10 µM |  | mean growth percentage | 84.8% |
| CC/C(=N\NC(=O)NCc1cccc(O)c1)c1ccc(O)c(C)c1O | SK-OV-3 | Western blot |  | 10 µM, 6 h, 2D culture, unit not given | reference: DMSO | TAZ band intensity | 0.19 ± 0.08 |

Repeated from above:
| SMILES | cell line | assay | system | setting | scale | endpoint | value |
| --- | --- | --- | --- | --- | --- | --- | --- |
| Nc1cccc2c1C(=O)N(C1CCC(=O)NC1=O)C2=O (stereo not drawn) | RPMI-8226 | flow cytometry, item: CD6 |  | concentration not given | reference: comparator compound alone | surface marker level | 161% |
| C=C[C@@]1(C)CC(=O)[C@]2(O)[C@@]3(C)[C@@H](O)CCC(C)(C)[C@@H]3[C@H](O)[C@H](OC(C)=O)[C@@]2(C)O1 | PBMC | MSD |  | 0.01 µM, unit not given, with: PGE2 | reference: DMSO | cAMP level difference | -3.03 |
| CC(C)NCC(O)c1ccc(O)c(O)c1 (stereo not drawn) | mouse ventricular cardiomyocytes |  |  | dose not given, 0.159 s |  | sarcomere length | 1.59 µm |
